Assay results of several laboratories.
Each numbered part is a random draw from the data of one study; scales do not carry over between parts. Changes are numbered by the printed parent chain.

Set 1 — method: RNA Bind-n-Seq; molecule type: RNA; sample: in vitro; concentration: not given; baseline: input RNA pool; reading: higher = stronger binding; quantity: bound/input enrichment
Target: RING finger protein unkempt homolog, zinc fingers 1-6, GST-SBP tag (UNK, Homo sapiens, UniProt Q9C0B0, residues 30-357)
Chain of UniProt Q9C0B0 (30-357, looked up): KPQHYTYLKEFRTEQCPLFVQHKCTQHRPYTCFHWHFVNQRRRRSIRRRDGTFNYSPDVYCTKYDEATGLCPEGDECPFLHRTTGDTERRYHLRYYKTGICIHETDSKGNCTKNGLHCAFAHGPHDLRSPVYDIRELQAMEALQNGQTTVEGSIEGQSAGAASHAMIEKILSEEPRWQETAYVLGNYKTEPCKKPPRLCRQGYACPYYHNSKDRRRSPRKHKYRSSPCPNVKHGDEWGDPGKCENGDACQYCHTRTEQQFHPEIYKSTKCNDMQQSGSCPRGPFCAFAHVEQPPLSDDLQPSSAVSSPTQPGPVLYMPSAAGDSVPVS
Notes: RNA with constant flanks, human-mouse chimeric sites, ends assumed
Constant ends, left off below: GGGAGUUCUACAGUCCGACGAUC … CAACAGAGGAUUGAGCAUCA
CCCCACAACCAUUUGCAGGUCUGGAACUGCACUCUCUUUUUUAAAAAACAUGUAUACAUUUUAGGGCUGUAGAUUUAUUUUCCUGGUUUUGUUUUUCUUGCUUAUUCUUUGAGCACAGAA: 2.09 ratio
GAUGAUAAUCACACAAAUGUGGCACUUUUACAUGACCAGCCUUGGGAUUCUUUUCCUGAUUAAUAUUCUCCCUGGAACCACUAGCCAAGGGGAAUCAAGACGACAAGAACCCGGGGACUU: 0.159 ratio
GUUGCCAGGUUCCGGUGGGCCUCCAUCCGGUUCUCUCCUGAGCUACGUGUCUCUACGCUCUCAAUCCGCCAUCCAACAAACAUGGAUCAGGUAAUGCAGUUUGUGGAGCCCAGCCGGCAG: 0.123 ratio
AAAGAGAAAGCUAAAACAACUGAUUGAAAGAGGAUUGGCAAAGAGAAUUUCAUAGAGAAACUAGGAUUUAUUAGCAAACAUGAGUUAUAUUCCAGAGCGUCUCAGAAACCCCAGCCAAAC: 3.25 ratio
UCAUUUUUCUCUUUUCUUUCUUUCCUUUAGGAAAAGCAGAUUAGACUGGUUGUAAGAAAAACAGAAGCCAUGUUUCGAAGACCUGUGUUACAGGUACUUCGUCAGUUUGUAAGACAUGAG: 0.51 ratio
AGAUUCCCCCUCCUGAGACCUCCUCCGAAGUUGGAGUCUCUUAUAGAUGCCUCAUCCCCUGUUAGCGUUUUGGUCUGGACCACCCAGCCUUGGACAAUUCCCGCCAACCAGGCAAUUUGC: 0.434 ratio
AAAGUGAUGACUAUGUUUGUACAGCGACAGGUAUUUUCGGAGAGCAAAGAUGAGAUUGCGUUAGUCCUGUUUGGUACAGAUGGCACUGAUAAUGCCCUUGCUGGCAAGGACCAGUAUCAG: 0.188 ratio
AGUUCCAAACCACCAUCAGAAAUGAAGAUGAGAUUACCCAAGACGAGCAAAACAGCUGCGCUACAGAAAAGUAAACUUAACCUUGCAGAGUUCCUUAAUGAAGAUACAAGUUAAGAGAGC: 0.168 ratio
UCUGGCCACACUCGUGUGUAUGGUGUUUGCUUUGUGGACACUUCACUGGGCAAGUUUUUCAUCGGCCAGUUUUCGGAUGACCGCCACUGUUCCAGAUUUAGGACGCUAGUGGCACACUAU: 0.137 ratio
CAGGGCACAGCACCUACCCCCUCCUCCUUUCCACACCUGCAAACUCUUUUACUUGGGCUGAAUAUUUAGUGUAAUUACAUCUCAGCUUUGAGGGCUCCUGUGGCAAAUUCCCGGAUUAAA: 0.827 ratio
CAGUCCCCGUGUCCCAGUGCAGGACGAGAACAUGGACUCGAAGACAUGGACCCUCUAUUGUAGUUCUUGAUUCUCGAAAUGUGCUAUUAUUGUUUGUCUUUUUUUUUUUUUUUUUAAAGA: 1.39 ratio

Set 2 — target: CCNB2, cyclin fold, Cln2 fusion (human); method: yeast growth competition, sequencing; sample: yeast; notes: weak parent motif; baseline: not given; reading: higher = stronger binding; quantity: normalised enrichment score
Starting sequence: CDC25A docking peptide (human); PPHRRRLLFACSP
PPHRRRLYFACSP [L8Y]: 0.625
PPKRRRLLFACSP [H3K]: 0.158
PPHRRRLLFCCSP [A10C]: 0.205
PPHRRRALFACSP [L7A]: 0.746
PPHRRRLLFACSN [P13N]: 0.939
PPHRRRLLFACSF [P13F]: 0.793
PPHRRRLLYACSP [F9Y]: 0.81
PPHRRRLFFACSP [L8F]: 0.76
PPHRRRLLFDCSP [A10D]: 0.318
PPHRRRKLFACSP [L7K]: 0.708
PPHRRRLLFAWSP [C11W]: -0.249
PPHRRRLLTACSP [F9T]: 0.681
PPHRFRLLFACSP [R5F]: 0.273
PPHRRRRLFACSP [L7R]: 0.594
PPHRRWLLFACSP [R6W]: 0.826
PPHRRRLLFAQSP [C11Q]: 0.787

Set 3 — method: RNA Bind-n-Seq; molecule type: RNA; sample: in vitro; concentration: 1 µM; notes: whole 134-nt RNA, ends assumed; added: 150 mM KCl; baseline: input library; reading: higher = stronger binding; quantity: log2 enrichment
Target: Ras GTPase-activating protein-binding protein 1, C-terminal RGG region (G3BP1, Homo sapiens, UniProt Q13283)
Chain of UniProt Q13283 (whole entry, looked up): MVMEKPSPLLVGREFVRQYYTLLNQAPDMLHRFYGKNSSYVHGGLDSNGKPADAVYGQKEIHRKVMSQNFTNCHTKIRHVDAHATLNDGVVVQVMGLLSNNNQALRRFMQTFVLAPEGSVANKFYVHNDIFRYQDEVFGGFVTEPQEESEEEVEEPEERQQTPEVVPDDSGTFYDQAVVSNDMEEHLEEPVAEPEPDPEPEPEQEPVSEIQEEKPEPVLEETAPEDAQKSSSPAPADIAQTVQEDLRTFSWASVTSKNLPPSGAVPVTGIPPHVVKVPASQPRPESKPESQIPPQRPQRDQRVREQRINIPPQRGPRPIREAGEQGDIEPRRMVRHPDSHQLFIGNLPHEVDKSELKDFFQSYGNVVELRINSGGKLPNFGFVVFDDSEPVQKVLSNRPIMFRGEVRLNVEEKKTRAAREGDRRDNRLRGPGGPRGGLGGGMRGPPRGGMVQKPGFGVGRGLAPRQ
Constant ends, left off below: GGGAGUUCUACAGUCCGACGAUC … UGGAAUUCUCGGGUGUCAAGG
AGUCCUGUGCUACACAUCGUAUGUACCGAAUCGGGGAAAAGGGAAAAGGAAAAGGGGAAAGUAUUAUGUUACGCCGUUCGGAUCUGCACU: -0.391
UGGGAGGUGGAUUUUGUUUAUUUUUUUAGCUCAUUUCCAGGGGUGGGAAUUUUUUUUUAAUAUCUGUCAUGAAUAAAGUUGUUUUUGAAA: 2.67
ACCACUGCUACAGUCACCACCACCCAGGCCUCCUAUGCAGCUCAGUCUGCAUAUGGCACUCAGCCUGCUUAUCCAGCCUAUGGGCAGCAG: -0.225
UGUGCUACACAUCGUAUGUACCGAAUCGGGGUUUUUUUGGGGUUUUUUUGGGGUUUUUGGGGAAAGUAUUAUGUUACGCCGUUCGGAUCU: -0.0495
GCAGGAAGUAAAAACAAAUGGAAAUGCUUCGGAUAGUGGCAGGAGUGGGGGUUGCUAAGGAAAGGGUGGGAUGGGAGUGGGUAAAGAGUU: 0.96
CAAGUCCUGUGCUACACAUCGUAUGUACCGAAUCGGGAGGGAGGGAAAAAAAGGGAAAGUAUUAUGUUACGCCGUUCGGAUCUGCACUUC: 0.36
CAAGUCCUGUGCUACACAUCGUAUGUACCGAAUCGGGGUGGGGUGGGGAAAGGGGAAAGUAUUAUGUUACGCCGUUCGGAUCUGCACUUC: 2.61
GUCCUGUGCUACACAUCGUAUGUACCGAAUCGGGGUUUGGGGUUUUUGGGGAAAGGGGAAAGUAUUAUGUUACGCCGUUCGGAUCUGCAC: 2.52
UUAGAUGAGGACCUUGAGAUUGAAUUGGUUGAGGAAGAGCCUCCAUUCCUGAGAGGGCACACUAAGCAAAGCAUGGACAUGAGCCCCAUU: -0.888
CAAGUCCUGUGCUACACAUCGUAUGUACCGAAUCGGAAAGGUUUGGAAAAAAAGGAAAGUAUUAUGUUACGCCGUUCGGAUCUGCACUUC: -1.82
CACAGACAACACGCACCCACACAGACACAGAGGGAAGGGGUUGGGAUGGGGACAGGGUGCACAGCAGAGCGGGGUAGGACCCCAGCCCCU: -0.747
GUCCUGUGCUACACAUCGUAUGUACCGAAUCAAACCCCCAAAUUUAAACCCCCCCAAAAAAGUAUUAUGUUACGCCGUUCGGAUCUGCAC: -0.75
GUCCUGUGCUACACAUCGUAUGUACCGAAUCGGGGAGGGGAAAGGGGAAAAAAAGGGGAAAGUAUUAUGUUACGCCGUUCGGAUCUGCAC: 1.25
CACAGACAACACGCACCCACACAGACAAAGAGGGAAGGGGUUGGGAUGGGGACAGGGUGCACAGCAGGGCGGGGUAGGACCCCAGCCCCU: -0.265

Set 4 — target: CRIPT, C-terminal peptide; method: DHFR complementation, deep sequencing; sample: yeast; baseline: wild type; reading: higher = weaker binding; quantity: binding free energy change
Notes: single substitutions, model-inferred values
Starting sequence: ERBIN, PDZ domain 1 (human); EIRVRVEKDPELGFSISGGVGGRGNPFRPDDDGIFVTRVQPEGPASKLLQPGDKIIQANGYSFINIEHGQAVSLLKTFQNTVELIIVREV; partner TKNYKQTSV
L48H: 0.0582 kcal/mol
P44M: 0.725 kcal/mol
E89L: 0.0318 kcal/mol
T37Q: 1.23 kcal/mol
I86A: 0.0883 kcal/mol
R5D: 0.219 kcal/mol
D53V: 0.631 kcal/mol
P44S: 0.566 kcal/mol
F63G: 1.88 kcal/mol
R3D: 0.275 kcal/mol
S46R: -0.0714 kcal/mol
I34Q: 0.861 kcal/mol
Q57A: -0.141 kcal/mol
V6R: 1.04 kcal/mol
A58F: 1.49 kcal/mol
V87Y: -0.00801 kcal/mol
A58G: -0.0318 kcal/mol
E83Q: 0.164 kcal/mol
R38G: 0.253 kcal/mol
Q70S: 0.0704 kcal/mol
N59L: 0.194 kcal/mol

Set 5 — method: RNA Bind-n-Seq; molecule type: RNA; sample: in vitro; concentration: 365 nM; baseline: no-protein control; reading: higher = stronger binding; quantity: RBNS enrichment (R)
Target: RNA binding protein fox-1 homolog 2, RRM domain, GST-SBP tag (RBFOX2, Homo sapiens, UniProt O43251-10, residues 100-194)
Notes: natural RNA segment, single round, ends assumed
Constant ends, left off below: GGGAGUUCUACAGUCCGACGAUC … UGGAAUUCUCGGGUGCCAA
Construct (chain): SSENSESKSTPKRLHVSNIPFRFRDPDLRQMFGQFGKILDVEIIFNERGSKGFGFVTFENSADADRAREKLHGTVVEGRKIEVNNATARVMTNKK
CUGUAGAGGUAUGAAAAUACAGCCCCAAAGGGGGAAUUUGUCAUGGGGAAGGGCCAGCCACUGACUACUUGAUCUUGGAGACCACAUUUAGAUGGAAAUGAGAGGACCUC: 0.817
GGGCAGGCGGUCCACCUAGACCCACAGCCCCUCGGGAGCACCCCACCUCUGUGUGUGAUGUAGCUUUCUCUCCCUCAGCCUGCAAGGGUCCGAUUUGCCAUCGAAAAAGA: 0.512
CAAUCCUCUACCAUCCUGCAGCUGAAAUGGGAACACUGGCUGCCUCUCUAAACCUAAACUCUUGGAUAGAGUUUCUGGGAGGUGGAGGCUGGACUAGAGAACUGGGGGAG: 0.571
AAUGAACUGUGUAAUAAGAGAGGCAGAGAAAAUGCAGGACUCCAGUUGAGAAGGCUUAAUCUCCUGUUUACAGCCCACAAUGAUUCUGUCCCAUGGUGUCCUGGCUAUAU: 0.671
CUGCAGCUUCUUUUUCACAUGUAGUGUCUCCUUCAAGUUACAUCGUGUGUAUUAUUUAAUGUCACUAUUGGUUAGUGGCCAUUUUUCAGAACUGAAGAUGGAAUGGCCUG: 0.284
UUUGACUAAUGUGUCUGGACUACUUGUAACUAGUUUUAUGAGCCUGUCAUAAUUUGCCAGGGUUCCCAUAUGUAUAUUAAGUUAAUUAAAUUCAGAAUUAAAAUAAUAAA: 0.965
GAUGUUCAUCACAGUGUGGUAAGGUUGCAAAUUCAAAACAUGUCACCCAAGCUCUGUUCAUGUUUUUGUGAAUUCUAGGCUGGUGCUGCACUGAAAUAGAGCAGUAAGCU: 0.444
GGAAGACGCCUUUCUCCUCCAACCCAACCUCAUCCUCCUUCUUCAGGGACUUGGGUGGGUACUUGGGUGAGGAUCCCUGAAGGCCUUCAACCCGAGAAAACAAACCCAGG: 0.236
GUCAGCCCUGCCUCACCAUGCCUGCAGGAGGCUGUCCAGGGAGCAGGUCUGUGUGCCCAUCAGCAGGUUCCCAUGGCUGUCACUGCCCACUCAUUUCCACAGUUAGAUAC: 0.752
CUACGUGGGAACAUCCUGUGAGCAAGGUGGCCACGAAGAAUAGAAAUAUCCUGAGCUUUGAGUGUCCUUUCACAGAGUGAACAAAACUGGUGUGGUGUAGACACGGCUUC: 0.411
CUACAGCUGCCCCAUAACCCGUGGCUUAUCCCUGGCACGUGGGGCCACACCCCACGCCCCCUGGAUAGGCAACACUGUCCUGCUCCAGCCUGUGCUGAAAUGAACUGUAC: 0.178
CUCUGACCCACGCCCCCUCCUUGUCUGAAAGAAAGGAGCCUUGAAUGGUGGAGGGAGGCAGUGGGGAGAAAGGUCUCACCGGACAGGUUGGGAGAAUGAGGUCAGCGGUG: 1.43

Further values, each from its own experiment
PhoQ, residues 284 288 289 292 302 303 TAVSDG — fold induction (PhoP, residues 12 14 15 18 19 IFFTR (Escherichia coli, UniProt P23836); Sort-seq, item: YFP reporter; E. coli; PhoQ-PhoP variant library, added: 10 µM Mg2+; baseline: high Mg2+ state, higher = stronger signaling): 0.856

For quick reference, copied from above (set 2):
PPKRRRLLFACSP [H3K]: 0.158
PPHRRRLLFCCSP [A10C]: 0.205
PPHRRRALFACSP [L7A]: 0.746
PPHRRRLLFACSN [P13N]: 0.939
PPHRRRLLFACSF [P13F]: 0.793
PPHRRRLLYACSP [F9Y]: 0.81
PPHRRRLFFACSP [L8F]: 0.76
PPHRRRLLFDCSP [A10D]: 0.318
